{"data": "Measured values from different studies", "note": "Each line is one published result; not all experiments were run side by side. Several values in a cell are separate wells, animals, samples, runs or records. ± marks the error that the study gave."}
{"Structure (SMILES)": "N#C[C@@H]1CC(F)(F)CN1C(=O)CNC(=O)c1ccnc2c(NC(=O)CCOCCOCCOCCOCCOCCOCCNC(=O)C(CCCCNC(=O)CN3CCN(CC(=O)[O-])CCN(CC(=O)[O-])CCN(CC(=O)[O-])CC3)NC(=O)CCCc3ccc(I)cc3)cccc12.[68Ga+3] (stereo partly shown)", "test system": "human serum", "setting": "60 min, 37 °C, 68Ga-labelled", "measurement": "radiochemical stability", "value": "98.56 ± 0.6%"}
{"Structure (SMILES)": "CCCCN1C(=O)c2cccc3c(NCCCCN4CCOCC4)ccc(c23)C1=O", "test system": "chloroform", "measurement": "Stokes shift", "value": "69 nm"}
{"Structure (SMILES)": "O=C1c2sc(-c3ccc(N4CCC(F)C4)nc3F)nc2CCN1c1cccnc1 (stereo not shown)", "test": "HPLC", "test system": "rhesus monkey, plasma", "setting": "intravenous, 119.68 min", "measurement": "parent fraction", "value": 0.0829}
{"Structure (SMILES)": "CC(=O)N([O-])CCCCCNC(=O)CCC(=O)N([O-])CCCCCNC(=O)CCC(=O)N([O-])CCCCCN.[89Zr+4]", "test system": "mouse, fat", "setting": "1 h", "measurement": "tracer uptake", "value": "0.07 %ID/g"}
{"Structure (SMILES)": "N#C[C@@H]1CC(F)(F)CN1C(=O)CNC(=O)c1ccnc2c(NC(=O)C(CCCCNC(=O)CCOCCOCCOCCOCCOCCOCCNC(=O)CN3CCN(CC(=O)[O-])CCN(CC(=O)[O-])CCN(CC(=O)[O-])CC3)NC(=O)CCCc3ccc(I)cc3)cccc12.[68Ga+3] (stereo partly shown)", "test system": "PBS", "setting": "30 min, 37 °C, 68Ga-labelled", "measurement": "radiochemical stability", "value": "99.43 ± 0.9%"}
{"Structure (SMILES)": "COCC1CN(C2CCN(c3cc(OC)c(Nc4ncc(Br)c(Nc5ccc6c(c5P(C)(C)=O)OCCO6)n4)cc3C)CC2)C1", "test": "first-in-human trial", "test system": "human", "setting": "oral, 90 mg once daily", "how to read": "treatment-related leading to dose reduction", "measurement": "adverse events", "value": "0%"}
{"Structure (SMILES)": "O=C(Nc1cnccc1-c1ccc([18F])nc1)c1ccnc(NC(=O)C2CC2)c1", "test": "ex vivo gamma counting", "test system": "GSK-3β transgenic mice, early-stage, left kidney", "setting": "intravenous, 120 min, added: tariquidar 15 mg/kg iv", "measurement": "mean SUV", "value": 0.372}
{"Structure (SMILES)": "C/C(N)=N/C(=N\\S(=O)(=O)c1ccc(C(F)(F)F)cc1)N1C[C@H](c2ccccc2)C(c2ccc(Cl)cc2)=N1", "test system": "male C57BL/6 mouse, plasma", "setting": "intravenous, 10 mg/kg", "measurement": "half-life", "value": "2.6 h"}
{"Structure (SMILES)": "Cc1nc(N)nc2c1C(=O)N[C@@H](c1ccc(F)cc1-c1cccc(O[11CH3])n1)C2", "test": "ex vivo biodistribution", "test system": "healthy mice, lungs", "setting": "60 min post-injection, baseline, vehicle pre-treatment", "measurement": "tracer uptake", "value": "2 ± 0.4 %ID"}
{"Structure (SMILES)": "CCC1C=C(C)C(O)C(C)CC(OC)C2OC(O)(C(=O)C(=O)N3CCCCC3C(=O)OC(C(C)=CC3CCC(O)C(OC)C3)C(C)C(O)CC1=O)C(C)CC2OC (stereo not shown)", "test system": "mouse C57BL/6, ear skin", "setting": "topical, 10 µL of 37.1 mM, 24 h, 3% propylene glycol", "measurement": "concentration", "value": "22800 ng/g"}
{"Structure (SMILES)": "CCCCN1C(=O)c2cccc3c(NCCCCCN4CCOCC4)ccc(c23)C1=O", "test system": "toluene", "measurement": "Stokes shift", "value": "75 nm"}
{"Structure (SMILES)": "CN1CCC[C@]1(C)/C=C/S(=O)(=O)NC(=O)Nc1c2c(cc3c1CCC3)CCC2", "test": "item: general and administration site disorders", "test system": "human", "setting": "oral, 12.5 mg twice daily, 14 days, multiple ascending dose", "measurement": "subjects with adverse event", "value": "0%"}
{"Structure (SMILES)": "[2H]C([2H])([2H])C1(C([2H])([2H])[2H])NC(=O)N(c2ccc(F)c(C(C)(F)F)c2)C1=O", "test system": "dog, plasma", "setting": "intravenous, 1 mg/kg", "measurement": "Vd", "value": "0.32 L/kg and 0.33 L/kg"}
{"Structure (SMILES)": "C=CC(=O)Nc1cc(Nc2nccc(-c3c[nH]c4ccccc34)n2)c(OC)cc1N(C)CCN(C)C", "test": "storage stability", "test system": "human plasma", "setting": "10 d, -80 °C, HQC level", "measurement": "recovery", "value": "102%"}
{"Structure (SMILES)": "CNc1cc(C)c(C(N)=O)cn1", "test system": "Han Wistar rats, male, plasma", "setting": "oral, 30 mg/kg, 0.50 h", "measurement": "plasma concentration", "value": "106 µM"}
{"Structure (SMILES)": "N#Cc1cc(NC(=O)C2c3ccccc3C(=O)N(CC(F)(F)F)C2c2ccc[n+]([O-])c2)ccc1F (stereo not shown)", "test system": "human", "setting": "1200 mg, unit not given", "how to read": "reference: other 6 cohorts", "measurement": "apparent oral clearance increase", "value": 1.5}
{"Structure (SMILES)": "O=S(=O)(Nc1ccc(OC(F)(F)F)cc1)N1CCCC(C2c3ccc(F)cc3CCc3cc(F)ccc32)C1 (stereo not shown)", "test system": "mouse, brain homogenate", "setting": "oral, 30 mg/kg, 2 h", "measurement": "brain concentration", "value": "191 ng/g"}
{"Structure (SMILES)": "[123I]c1ccc2nc(-c3ccc(-n4ccnn4)nc3)cn2c1", "test system": "male Wistar rat, blood", "setting": "intravenous, 4 MBq, 30 min", "measurement": "tracer uptake", "value": "0.2 %ID/g"}
{"Structure (SMILES)": "CC[C@H](C)[C@@H]1NC(=O)[C@H](Cc2ccc(O)cc2)NC(=O)CCCSC[C@@H](C(=O)N(CC(=O)N[C@@H](CC(C)C)C(=O)NCC(N)=O)Cc2ccc(F)cc2)NC(=O)[C@H](CC(N)=O)NC(=O)[C@H](CCC(N)=O)NC1=O", "test system": "human", "setting": "intranasal, 200 µg single dose", "measurement": "drug-related headache", "value": "50%"}
{"Structure (SMILES)": "CC#CC(=O)N1CCC[C@H]1c1nc(-c2ccc(C(=O)Nc3ccccn3)cc2)c2c(N)nccn12", "test system": "mouse, TMD8 tumour-bearing, plasma", "setting": "7.5 mg/kg twice daily, 12 h", "measurement": "trough concentration", "value": "0.322 ng/mL"}
{"Structure (SMILES)": "C=C(NC(=O)c1csc(-c2nc3c(cc2O)-c2nc(cs2)C(=O)NC(C(C)O)C(=O)NC(=C(C)OC)c2nc(cs2)C(=O)NC2c4nc(cs4)C(=O)NC(COC(=O)c4c5c6c(cccc6n4O)COC(=O)C(OC4CC(C)(O)C(N(C)C)C(C)O4)C2OC5)c2nc-3cs2)n1)C(N)=O (stereo not shown)", "test system": "male cynomolgus monkey, plasma", "setting": "intravenous, 3 mg/kg, single dose, infusion", "measurement": "Tmax", "value": "0.67 h"}
{"Structure (SMILES)": "CC1(C)C(=CC=C2CCCC(C=CC3=[N+](CCC[N+](C)(C)C)c4ccc(S(=O)(=O)O)cc4C3(C)C)=C2SCCOCCOCCC(=O)O)N(CCC[N+](C)(C)C)c2ccc(S(=O)(=O)O)cc21", "test system": "DMSO", "measurement": "Stokes shift", "value": "28 nm"}
{"Structure (SMILES)": "O=C1c2sc(-c3ccc(N4CCC(CO)CC4)nc3F)nc2CCN1c1cccnc1", "test system": "CD1 mouse, plasma", "setting": "i.v., dose not given, 0.25 h", "measurement": "concentration", "value": "58.8 ng/mL and 93.4 ng/mL and 57.3 ng/mL"}
{"Structure (SMILES)": "COc1cccc(OC)c1-c1cc(C(=O)NC2(C(=O)O)C3CC4CC(C3)CC2C4)nn1-c1ccc(C(=O)N(C)CCOCCN(C)C(=O)[C@H](CCCCNC(=O)[C@H](CC(C)C)NC(=O)C2OC2C(=O)O)NC(=O)CN2CCN(CC(=O)[O-])CCN(CC(=O)[O-])CCN(CC(=O)[O-])CC2)cc1C(C)C.[177Lu+3] (mixture of isomers)", "test system": "mouse HT-29 xenograft", "setting": "4 h, biodistribution", "how to read": "reference: tumour over stomach", "measurement": "tumour-to-stomach ratio", "value": 5.69}
{"Structure (SMILES)": "COc1ccc2c(c1)CCn1c[n+]3c(c1-2)-c1ccc(OC)cc1CC3", "test system": "female NSG mice, blood", "setting": "6 mg/kg, day 20, 5 days per week", "measurement": "Monocytes", "value": "14.9 ± 4.98%"}
{"Structure (SMILES)": "Cc1cc(C(=O)NC(C)(C)CO)cc(C)n1", "test": "LC-MS metabolite profiling", "test system": "Sprague-Dawley rat, both sexes, plasma", "setting": "oral, 100 mg/kg of parent drug, 8 (unit not given)", "how to read": "higher = more metabolite", "measurement": "plasma peak area", "value": "88800 a.u."}
{"Structure (SMILES)": "CN(Cc1cc(C2CC2)on1)C(=O)c1cccc(-c2ccc(F)cc2)c1", "test system": "male ICR/CD-1 mouse, liver microsomes", "setting": "2 µM, 120 min, pH 7.5, added: 1-aminobenzotriazole 500 µM, preincubated 30 min", "measurement": "remaining compound", "value": "62.3%"}
{"Structure (SMILES)": "CCCCN1C(=O)c2cccc3c(NCCCCCCN4CCOCC4)ccc(c23)C1=O", "test system": "dioxane", "measurement": "Stokes shift", "value": "85 nm"}
{"Structure (SMILES)": "O=C(O)CCCOc1ccc([18F])cc1-c1cc(-c2ccccc2C(F)(F)F)n(-c2ccccc2)n1", "test": "OLINDA/EXM from mouse data", "test system": "human adults, kidney", "measurement": "absorbed dose", "value": "18.2 µGy/MBq"}
{"Structure (SMILES)": "CCCCN1C(=O)c2cccc3c(NCCCN4CCOCC4)ccc(c23)C1=O", "test system": "DMSO", "measurement": "Stokes shift", "value": "92 nm"}
{"Structure (SMILES)": "O=C(Nc1cnccc1-c1ccc([18F])cc1)c1ccnc(NC(=O)C2CC2)c1", "test": "ex vivo gamma counting", "test system": "GSK-3β transgenic mice, late-stage, heart", "setting": "intravenous, 1.26 MBq/animal, 120 min, mean, no P-gp inhibitor", "measurement": "SUV", "value": 0.23}
{"note": "Excerpt of the above:"}
{"Structure (SMILES)": "C/C(N)=N/C(=N\\S(=O)(=O)c1ccc(C(F)(F)F)cc1)N1C[C@H](c2ccccc2)C(c2ccc(Cl)cc2)=N1", "test system": "male C57BL/6 mouse, plasma", "setting": "intravenous, 10 mg/kg", "measurement": "half-life", "value": "2.6 h"}
{"Structure (SMILES)": "COCC1CN(C2CCN(c3cc(OC)c(Nc4ncc(Br)c(Nc5ccc6c(c5P(C)(C)=O)OCCO6)n4)cc3C)CC2)C1", "test": "first-in-human trial", "test system": "human", "setting": "oral, 90 mg once daily", "how to read": "treatment-related leading to dose reduction", "measurement": "adverse events", "value": "0%"}
